Results collected from several papers.
Protocols differ between the studies behind these lines. ± gives the spread as reported.
Cell line: A-375

Structure (SMILES) | test | setting | IC50
CC(=O)[O][Pt]([Cl])([Cl])[O]C(C)=O.N.N | cytotoxicity | 72 h | 29.7 ± 5.16 µM
CC(C)c1cccc(C(C)C)c1-n1c(Cl)c(Cl)n(-c2c(C(C)C)cccc2C(C)C)c1=[Se].[Cl][Au] | cell growth or viability, MTT | 72 h | 1.3 µM
O=C(/C=C/c1ccc2c(c1)C(=O)N(CCCc1ccccc1)CC2)NO | cell growth, SRB | 72 h | 2.09 ± 1.2 µM
CC(C)c1cccc(C(C)C)c1-n1ccn(-c2c(C(C)C)cccc2C(C)C)c1=[Se].[Cl][Au] | cell growth or viability, MTT | 72 h | 0.6 µM
Cc1ccc(CN2C(=O)/C(=N\c3ccc(Cl)cc3Br)c3ccccc32)cc1 | cell growth or viability, MTT | 48 h | 0.97 µM
O=C1Nc2ccccc2C1n1nc(-c2c(O)c3ccccc3oc2=O)cc1-c1ccc(F)cc1 (centres unmarked) | cell growth or viability, SRB | 72 h | 6.25 µM
C=C1C(=O)O[C@H]2CC3=C[C@@H](C/C(C)=C/[C@@H](OC(=O)/C=C/c4ccccc4)[C@H]12)OC3=O | cell growth or viability, MTT | 24 h | 3.3 µM
CC(C)c1cccc(C(C)C)c1N1CCN(c2c(C(C)C)cccc2C(C)C)C1=[Se].[Cl][Ag] | cell growth or viability, MTT | 72 h | 0.4 µM
CCCC(CCC)C(=O)[O][Pt]1([O]C(=O)C(CCC)CCC)[O]C(=O)C(=O)[O]1.NC1CCCCC1N | cytotoxicity | 72 h | 4.17 ± 0.87 µM
COc1cccc(-c2ccc(Nc3ccc(CN(C)C)cc3)c(OC)c2F)c1 | HTRF, measured: total Erk | – | > 1000 µM
N.N.O=C(CCCc1ccccc1)[O][Pt]([Cl])([Cl])[O]C(=O)CCCc1ccccc1 | cytotoxicity | 72 h | 0.16 ± 0.02 µM
Cc1c(C)n(-c2c(C(C)C)cccc2C(C)C)c(=[Se])n1-c1c(C(C)C)cccc1C(C)C.[Cl][Ag] | cell growth or viability, MTT | 72 h | 0.4 µM
NC1CCCCC1N.O=C(CCCc1ccccc1)[O][Pt]1([O]C(=O)CCCc2ccccc2)[O]C(=O)C(=O)[O]1 | cytotoxicity | 72 h | 0.64 ± 0.13 µM
CO[C@@H]1C(=O)c2ccc(O)cc2O[C@@H]1c1ccc(O)c(O)c1 (relative stereo) | cell growth or viability, MTT | 72 h | 345 µM
